Published values of several laboratories.
Numbered parts are unrelated; each lists some results of a single study. “And” joins repeats or separate records; there may be more than shown.
Sequence of UniProt P53671 (whole entry, looked up): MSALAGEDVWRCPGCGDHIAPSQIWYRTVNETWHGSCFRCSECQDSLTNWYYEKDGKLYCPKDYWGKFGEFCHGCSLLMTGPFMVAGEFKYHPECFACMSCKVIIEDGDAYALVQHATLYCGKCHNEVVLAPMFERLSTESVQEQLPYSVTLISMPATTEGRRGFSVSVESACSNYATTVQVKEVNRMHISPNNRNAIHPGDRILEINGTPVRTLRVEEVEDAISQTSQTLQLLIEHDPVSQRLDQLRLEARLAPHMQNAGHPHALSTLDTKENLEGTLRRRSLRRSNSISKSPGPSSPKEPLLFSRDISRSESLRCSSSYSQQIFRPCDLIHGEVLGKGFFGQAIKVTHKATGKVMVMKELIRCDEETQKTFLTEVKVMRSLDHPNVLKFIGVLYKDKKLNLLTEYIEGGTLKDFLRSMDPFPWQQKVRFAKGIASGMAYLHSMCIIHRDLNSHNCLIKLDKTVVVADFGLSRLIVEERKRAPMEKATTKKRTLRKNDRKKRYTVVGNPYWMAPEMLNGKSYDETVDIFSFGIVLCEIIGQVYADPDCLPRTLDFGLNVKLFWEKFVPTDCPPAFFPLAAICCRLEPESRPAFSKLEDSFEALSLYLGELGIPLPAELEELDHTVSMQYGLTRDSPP
Sequence of UniProt Q15349 (whole entry, looked up): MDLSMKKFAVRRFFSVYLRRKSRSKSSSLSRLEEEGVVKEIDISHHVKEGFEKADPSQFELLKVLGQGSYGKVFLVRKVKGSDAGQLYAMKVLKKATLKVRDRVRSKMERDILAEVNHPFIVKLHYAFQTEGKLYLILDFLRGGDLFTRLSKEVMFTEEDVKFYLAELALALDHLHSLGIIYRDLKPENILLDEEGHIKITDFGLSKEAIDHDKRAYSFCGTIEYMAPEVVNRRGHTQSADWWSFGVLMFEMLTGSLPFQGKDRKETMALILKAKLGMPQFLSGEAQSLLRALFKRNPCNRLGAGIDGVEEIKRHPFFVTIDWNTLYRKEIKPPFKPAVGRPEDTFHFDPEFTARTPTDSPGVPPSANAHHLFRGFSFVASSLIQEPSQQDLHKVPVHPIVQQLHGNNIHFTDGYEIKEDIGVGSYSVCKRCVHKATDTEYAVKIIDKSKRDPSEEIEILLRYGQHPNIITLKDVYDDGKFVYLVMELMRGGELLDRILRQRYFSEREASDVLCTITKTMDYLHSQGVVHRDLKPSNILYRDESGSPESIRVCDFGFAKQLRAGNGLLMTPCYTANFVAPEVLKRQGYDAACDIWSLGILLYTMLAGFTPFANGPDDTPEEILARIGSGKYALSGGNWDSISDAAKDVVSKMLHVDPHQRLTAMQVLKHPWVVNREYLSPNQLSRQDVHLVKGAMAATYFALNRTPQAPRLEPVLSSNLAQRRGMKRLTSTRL
Sequence of UniProt Q9BWU1 (whole entry, looked up): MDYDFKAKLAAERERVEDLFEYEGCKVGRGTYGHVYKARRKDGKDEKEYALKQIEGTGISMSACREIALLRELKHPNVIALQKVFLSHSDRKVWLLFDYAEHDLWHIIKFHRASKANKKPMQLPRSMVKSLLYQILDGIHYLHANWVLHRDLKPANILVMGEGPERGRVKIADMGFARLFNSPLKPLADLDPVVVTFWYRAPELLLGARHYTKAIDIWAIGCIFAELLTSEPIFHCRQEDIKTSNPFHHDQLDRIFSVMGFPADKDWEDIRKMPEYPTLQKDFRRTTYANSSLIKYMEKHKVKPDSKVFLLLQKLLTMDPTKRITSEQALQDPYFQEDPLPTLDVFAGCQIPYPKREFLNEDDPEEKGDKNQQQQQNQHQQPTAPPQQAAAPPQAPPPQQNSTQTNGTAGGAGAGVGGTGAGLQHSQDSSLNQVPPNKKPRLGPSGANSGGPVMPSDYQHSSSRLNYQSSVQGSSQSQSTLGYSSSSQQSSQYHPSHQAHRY
Sequence of UniProt Q9H0K1 (whole entry, looked up): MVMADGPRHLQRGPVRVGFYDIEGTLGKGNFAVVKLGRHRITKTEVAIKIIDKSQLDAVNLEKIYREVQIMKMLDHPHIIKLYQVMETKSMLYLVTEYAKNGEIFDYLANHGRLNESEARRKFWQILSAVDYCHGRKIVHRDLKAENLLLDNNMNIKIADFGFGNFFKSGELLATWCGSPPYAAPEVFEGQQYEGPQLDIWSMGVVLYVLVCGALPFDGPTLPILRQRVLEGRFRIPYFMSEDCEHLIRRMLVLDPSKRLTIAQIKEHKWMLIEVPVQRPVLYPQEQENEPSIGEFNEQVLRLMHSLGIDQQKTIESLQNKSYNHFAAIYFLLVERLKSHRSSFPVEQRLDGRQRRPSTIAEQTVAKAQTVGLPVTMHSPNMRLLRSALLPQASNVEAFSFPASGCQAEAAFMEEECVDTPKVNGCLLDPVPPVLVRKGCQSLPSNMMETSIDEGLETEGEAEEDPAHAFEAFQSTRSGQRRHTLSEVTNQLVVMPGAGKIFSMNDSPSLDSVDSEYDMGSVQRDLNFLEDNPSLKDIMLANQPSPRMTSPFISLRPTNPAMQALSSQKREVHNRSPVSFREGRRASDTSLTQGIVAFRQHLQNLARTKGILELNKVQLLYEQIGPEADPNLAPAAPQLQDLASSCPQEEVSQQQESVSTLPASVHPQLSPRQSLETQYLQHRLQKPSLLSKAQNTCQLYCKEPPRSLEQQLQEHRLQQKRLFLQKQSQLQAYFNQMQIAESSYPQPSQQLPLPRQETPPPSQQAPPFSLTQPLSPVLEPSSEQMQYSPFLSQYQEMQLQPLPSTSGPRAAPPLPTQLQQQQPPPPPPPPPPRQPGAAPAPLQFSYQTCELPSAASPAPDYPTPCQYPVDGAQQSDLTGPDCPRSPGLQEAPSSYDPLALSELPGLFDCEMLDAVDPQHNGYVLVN
Sequence of UniProt P11362 (whole entry, looked up): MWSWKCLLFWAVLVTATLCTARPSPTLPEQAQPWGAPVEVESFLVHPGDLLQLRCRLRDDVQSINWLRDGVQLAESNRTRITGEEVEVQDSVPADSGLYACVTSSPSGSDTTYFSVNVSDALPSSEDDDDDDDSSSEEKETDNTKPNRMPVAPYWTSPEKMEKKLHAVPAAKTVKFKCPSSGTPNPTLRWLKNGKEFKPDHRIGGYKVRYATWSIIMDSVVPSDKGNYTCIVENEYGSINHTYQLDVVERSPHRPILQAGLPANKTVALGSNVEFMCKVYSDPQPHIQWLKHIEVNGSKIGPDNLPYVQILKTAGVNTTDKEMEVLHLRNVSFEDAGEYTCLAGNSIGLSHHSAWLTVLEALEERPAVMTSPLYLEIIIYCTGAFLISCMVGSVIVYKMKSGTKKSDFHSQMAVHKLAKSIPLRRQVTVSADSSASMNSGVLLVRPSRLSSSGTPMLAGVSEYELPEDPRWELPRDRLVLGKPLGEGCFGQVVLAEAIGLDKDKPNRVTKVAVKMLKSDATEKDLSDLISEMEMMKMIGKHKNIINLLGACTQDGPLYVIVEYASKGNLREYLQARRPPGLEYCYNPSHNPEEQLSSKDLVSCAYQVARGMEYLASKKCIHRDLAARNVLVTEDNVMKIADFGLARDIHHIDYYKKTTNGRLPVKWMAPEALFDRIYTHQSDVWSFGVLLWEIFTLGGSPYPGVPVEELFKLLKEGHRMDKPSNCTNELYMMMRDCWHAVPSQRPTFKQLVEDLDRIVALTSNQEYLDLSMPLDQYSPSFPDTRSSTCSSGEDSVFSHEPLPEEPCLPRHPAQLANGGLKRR
Sequence of UniProt P49841 (whole entry, looked up): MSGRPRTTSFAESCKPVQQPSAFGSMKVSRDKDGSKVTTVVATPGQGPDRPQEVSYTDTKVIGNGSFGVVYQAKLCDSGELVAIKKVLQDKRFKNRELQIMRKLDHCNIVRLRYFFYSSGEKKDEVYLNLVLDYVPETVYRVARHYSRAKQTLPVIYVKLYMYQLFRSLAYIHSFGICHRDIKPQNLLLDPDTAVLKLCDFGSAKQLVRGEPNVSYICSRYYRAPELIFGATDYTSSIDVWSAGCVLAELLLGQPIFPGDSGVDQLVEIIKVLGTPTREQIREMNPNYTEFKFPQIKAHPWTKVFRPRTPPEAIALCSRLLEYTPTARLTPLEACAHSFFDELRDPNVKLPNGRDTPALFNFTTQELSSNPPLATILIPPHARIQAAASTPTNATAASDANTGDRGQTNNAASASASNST
Sequence of UniProt Q6PHR2 (whole entry, looked up): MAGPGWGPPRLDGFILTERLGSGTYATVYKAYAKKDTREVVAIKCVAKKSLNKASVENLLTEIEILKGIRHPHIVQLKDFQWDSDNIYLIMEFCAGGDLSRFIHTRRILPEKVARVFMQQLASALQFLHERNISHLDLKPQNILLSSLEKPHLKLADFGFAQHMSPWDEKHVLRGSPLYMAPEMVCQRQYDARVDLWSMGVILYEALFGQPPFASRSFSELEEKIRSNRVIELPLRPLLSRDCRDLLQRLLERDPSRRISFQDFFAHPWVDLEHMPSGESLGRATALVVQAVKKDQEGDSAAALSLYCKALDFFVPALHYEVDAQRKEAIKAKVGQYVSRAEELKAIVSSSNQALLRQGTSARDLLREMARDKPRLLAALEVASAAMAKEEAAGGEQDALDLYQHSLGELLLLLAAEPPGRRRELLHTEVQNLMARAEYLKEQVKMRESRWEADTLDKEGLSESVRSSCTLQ

Sample 1
SMILES: COc1cc2ncnc(Nc3ccc(Oc4ccccc4)cc3)c2cc1OC
Read-out: enzyme activity
Action: inhibitor
Tested at: 0.5 µM
Relative to: control
target	remaining activity [%]
FGFR1 (Homo sapiens, UniProt P11362)	85
MST1R (Homo sapiens, UniProt Q04912)	95.7
JAK3 (Homo sapiens, UniProt P52333)	93.1
ULK3 (Homo sapiens, UniProt Q6PHR2)	94.7
NEK6 (Homo sapiens, UniProt Q9HC98)	93
MAP3K5 (Homo sapiens, UniProt Q99683)	107
MAPKAPK2 (Homo sapiens, UniProt P49137)	103
TAOK2 (Homo sapiens, UniProt Q9UL54)	97.8
MAPK3 (Homo sapiens, UniProt P27361)	105
ABL2 (Homo sapiens, UniProt P42684)	96.4
EPHA3 (Homo sapiens, UniProt P29320)	101
WEE1 (Homo sapiens, UniProt P30291)	99.1
RPS6KA2 (Homo sapiens, UniProt Q15349)	98
NEK1 (Homo sapiens, UniProt Q96PY6)	101
ARAF (Homo sapiens, UniProt P10398)	73.3
FRK (Homo sapiens, UniProt P42685)	72.2
GSK3B (Homo sapiens, UniProt P49841)	109
FGFR3 (Homo sapiens, UniProt P22607)	87.1
CSNK1G2 (Homo sapiens, UniProt P78368)	99.9
LCK (Homo sapiens, UniProt P06239)	4.72
TBK1 (Homo sapiens, UniProt Q9UHD2)	93.7
MAP3K14 (Homo sapiens, UniProt Q99558)	93
ACVR1B (Homo sapiens, UniProt P36896)	97.5
MAP2K2 (Homo sapiens, UniProt P36507)	105

Sample 2
SMILES: CC(=O)N[C@@H](Cc1c[nH]c2ccccc12)C(=O)N[C@@H](CCC(=O)C=[N+]=[N-])C(=O)OC(C)C
Species: C57BL/6 CES1-/- mice, EL4 tumour
Medium: EL4 tumour
Route: subcutaneous
Dose: 0.3 mg/kg/day DON equivalent
Time: 5 days
assay	conditions	scale	metabolite peak intensity
LC-MS/MS metabolomics, measured: 3'-AMP	normalised to tissue mass	higher = more metabolite	1.82e+06 a.u. and 1.42e+06 a.u. and 1.61e+06 a.u. and 2.88e+06 a.u. and 2.43e+06 a.u. and 2.66e+06 a.u.
LC-MS/MS metabolomics, measured: phenol sulfate	–	higher = more metabolite	969000 a.u. and 2.42e+06 a.u. and 3.51e+06 a.u. and 2.1e+06 a.u. and 1.2e+06 a.u. and 1.74e+06 a.u.
UPLC-MS/MS, measured: CoA-glutathione	–	–	110000 a.u. and 133000 a.u. and 44300 a.u. and 123000 a.u. and 89800 a.u. and 24400 a.u.
UPLC-MS/MS, measured: 4-methyl-2-oxopentanoate	–	–	172000 a.u. and 270000 a.u. and 135000 a.u. and 177000 a.u. and 147000 a.u.
UPLC-MS/MS, measured: AMP	–	–	3.37e+07 a.u. and 4.51e+07 a.u. and 4.49e+07 a.u. and 2.6e+07 a.u. and 3.11e+07 a.u. and 3.16e+07 a.u.
UPLC-MS/MS metabolomics, measured: N-acetylputrescine	normalised to tissue mass	higher = more metabolite	2.52e+06 a.u. and 2.39e+06 a.u. and 2.6e+06 a.u. and 1.9e+06 a.u. and 1.56e+06 a.u. and 2.56e+06 a.u.
UPLC-MS/MS, measured: 4-hydroxyphenylpyruvate	–	–	121000 a.u. and 189000 a.u. and 165000 a.u. and 123000 a.u. and 143000 a.u. and 175000 a.u.
LC-MS/MS metabolomics, measured: pantothenate	–	higher = more metabolite	9.88e+06 a.u. and 6.51e+06 a.u. and 1.52e+07 a.u. and 7.88e+06 a.u. and 1.01e+07 a.u. and 1.27e+07 a.u.
UPLC-MS/MS metabolomics, measured: N-acetylarginine	normalised to tissue mass	higher = more metabolite	1.33e+06 a.u. and 1.57e+06 a.u. and 1.69e+06 a.u. and 1.41e+06 a.u. and 1.32e+06 a.u. and 1.38e+06 a.u.

Sample 3
Target: Calcium/calmodulin-dependent protein kinase type II subunit alpha (CAMK2A, Homo sapiens, UniProt Q9UQM7)
Sequence of UniProt Q9UQM7 (whole entry, looked up): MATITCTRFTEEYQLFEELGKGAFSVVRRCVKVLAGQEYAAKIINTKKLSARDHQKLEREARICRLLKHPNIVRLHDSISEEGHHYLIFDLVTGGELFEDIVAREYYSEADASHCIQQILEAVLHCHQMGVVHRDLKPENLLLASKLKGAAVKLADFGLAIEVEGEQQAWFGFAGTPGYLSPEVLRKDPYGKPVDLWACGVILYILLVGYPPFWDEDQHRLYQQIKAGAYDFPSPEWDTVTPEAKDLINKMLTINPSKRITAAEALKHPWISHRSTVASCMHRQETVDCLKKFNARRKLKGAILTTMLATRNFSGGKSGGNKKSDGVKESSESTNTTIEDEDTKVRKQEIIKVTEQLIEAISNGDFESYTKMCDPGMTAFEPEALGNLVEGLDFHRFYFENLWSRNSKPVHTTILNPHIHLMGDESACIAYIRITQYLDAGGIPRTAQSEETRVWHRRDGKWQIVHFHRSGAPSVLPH
Read-out: enzyme activity
Action: inhibitor
Tested at: 10 µM
Structure (SMILES)	inhibition
COC(=O)/C=C/c1ccc(O)c(OC)c1	-15%
C=C(c1ccc(C(=O)O)cc1)c1cc2c(cc1C)C(C)(C)CCC2(C)C	5%
CN(CCN1CCC(OC(=O)Nc2ccccc2-c2ccccc2)CC1)C(=O)c1ccc(CN2CCC(C(N)=O)CC2)cc1	-9%
CCCCC[C@H](CC(=O)NO)C(=O)N[C@H](C(=O)N1CCC[C@H]1CO)C(C)C	-18%
OC[C@@H](O)[C@@H](O)[C@H](O)[C@@H](O)CO	-8%

Sample 4
SMILES: CN(C)CC#Cc1ccc(OCCCc2sc(N3CCc4cccc(C(=O)Nc5nc6ccccc6s5)c4C3)nc2C(=O)O)c(F)c1
Tested at: 1 µM
target	assay	remaining binding [%]
LIM domain kinase 2 (LIMK2, Homo sapiens, UniProt P53671)	cell-free assay, competition with immobilised ligand	96
CDC42BPB (Homo sapiens, UniProt Q9Y5S2)	cell-free assay, competition with immobilised ligand	87
MET (Homo sapiens, UniProt P08581, M1250T)	cell-free assay, competition with immobilised ligand	100
CDK19 (Homo sapiens, UniProt Q9BWU1)	competition binding	95
CHUK (Homo sapiens, UniProt O15111)	cell-free assay, competition with immobilised ligand	81
SIK2 (Homo sapiens, UniProt Q9H0K1)	cell-free assay, competition with immobilised ligand	96

Sample 5
Species: mouse
Medium: microsomes or S9
Tested at: 2 µM
Time: 0.5 h
SMILES	remaining compound [%]
Fc1ccc(Nc2cnnc3c(Cl)cccc23)cc1	4.47
NC1=C(c2nc3ccccc3s2)C(=O)CN1CC1COCCO1 (stereo not shown)	50.1
CNS(=O)(=O)c1cn(CC(=O)Nc2ccc(C)cn2)cc1S(=O)(=O)NC	89.6
CCCC1(Cn2ccnc2-c2nccn2C)CCC1	0.152
N#Cc1c(N)c(-c2ccccc2)c(F)c2ccccc12	22.4
C(=C\c1ccc2ccnc(N3CCOCC3)c2c1)/c1ccncc1	14.7
CCc1c(C(=O)c2cc(F)cc(F)c2)n(C/C=C/c2ccccc2)c(=O)[nH]c1=O	11.4
CC(C)Cc1nc2nccc(-c3ccncc3)n2n1	32.1
